Published values pooled from the literature.
Each line is one published result; not all experiments were run side by side. Numbers after ± are the reported error.
MCL1: Induced myeloid leukemia cell differentiation protein Mcl-1 (MCL1, Homo sapiens, UniProt Q07820)
PDGFRB: Platelet-derived growth factor receptor beta (PDGFRB, Homo sapiens, UniProt P09619)
ALDH1A1: Aldehyde dehydrogenase 1A1 (ALDH1A1, Homo sapiens, UniProt P00352)

For `O=C(NCc1ccccc1)/C(=C/c1cn(-c2ccccc2)nc1-c1ccccc1)NC(=O)c1ccc(Cl)cc1Cl`, the IC50 was 820 nM (PTGS2 (Ovis aries, UniProt P79208); enzyme activity, inhibitor, absorbance).
For `CC[C@H](C)[C@@H]1NC(=O)[C@H](CCCNC(=N)N)NC(=O)[C@H](CCCNC(=N)N)NC(=O)[C@H](CC(C)C)NC(=O)[C@@H](NC(=O)[C@H](C)NC(=O)[C@H](C)NC(C)=O)CSCc2ccc(cn2)-c2ccc(nc2)CSC[C@@H](C(=O)N[C@H](C(=O)N[C@@H](CC(N)=O)C(=O)N[C@@H](CC(C)C)C(=O)N[C@@H](CCCNC(=N)N)C(=O)N[C@@H](CCC(N)=O)C(=O)N[C@@H](CCCCN)C(=O)N[C@@H](CC(C)C)C(=O)N[C@@H](CC(C)C)C(=O)N[C@@H](CC(N)=O)C(N)=O)C(C)C)NC(=O)[C@H](CC(=O)O)NC(=O)CNC1=O`, the IC50 was 41 nM (MCL1; ligand displacement, FP).
`CC(C)C[C@H]1CN[C@H](C(N)=O)CSSC[C@@H](N)C(=O)N[C@@H](CCC(N)=O)C(=O)N[C@@H](Cc2c[nH]c3ccccc23)C(=O)N[C@@H](C)C(=O)N[C@@H](C(C)C)C(=O)N[C@H](C)C(=O)N[C@@H](Cc2c[nH]cn2)C(=O)N1` gave an IC50 of over 10000 nM (NMBR (Homo sapiens, UniProt P28336); inositol phosphate generation, antagonist; NCI-H1299; together with: neuromedin B).
For `COc1cc2nccc(Oc3ccc(NC(=S)NC4CC4)c(C(F)(F)F)c3)c2cc1C(N)=O`, the IC50 was 406 nM (PDGFRB).
With `O=C(O)c1ccccc1-c1c2ccc(=O)c(Br)c-2oc2c(Br)c(O)ccc12` the IC50 was 23800 nM (FTO (Homo sapiens, UniProt Q9C0B1); enzyme activity, inhibitor, mass spectrometry).
`CCCOc1cc(O)c2c(=O)c(OC)c(C[C@@H](C)O)c3c4c(C[C@@H](C)O)c(OC)c(=O)c5c(O)cc(OCCC)c(c1c23)c54` gave an IC50 of 1500 nM (protein kinase C; enzyme activity, inhibitor; whole enzyme).
The IC50 of `O=S(=O)(Nc1ccc(Oc2ncccc2-c2ccnc(N[C@H]3CCCNC3)n2)cc1F)c1ccccc1Cl` is reported as 120 ± 10 nM (Serine/threonine-protein kinase/endoribonuclease IRE1, RNase domain (ERN1, Homo sapiens, UniProt O75460); RNase activity, inhibitor; together with: XBP1 mini-substrate).
For `N=C(N)NCCC[C@@H]1NC(=O)[C@H](Cc2c[nH]c3ccccc23)NC(=O)[C@H](CCCNC(=N)N)NC(=O)[C@H](Cc2c[nH]c3ccccc23)NC(=O)[C@H](CCCNC(=N)N)NC(=O)[C@H](Cc2c[nH]c3ccccc23)NC(=O)[C@H](CCCNC(=N)N)NC(=O)[C@H](Cc2c[nH]c3ccccc23)NC(=O)[C@H](CCCNC(=N)N)NC(=O)[C@H](Cc2c[nH]c3ccccc23)NC(=O)[C@H](CCCNC(=N)N)NC(=O)[C@H](Cc2c[nH]c3ccccc23)NC(=O)[C@H](CCCNC(=N)N)NC(=O)[C@H](Cc2c[nH]c3ccccc23)NC1=O`, the IC50 was 1170 nM (Cyclin-dependent kinase 2, with cyclin A1 (CDK2, Homo sapiens, UniProt P24941); enzyme activity, inhibitor).
`CC(C)S(=O)(=O)c1ccc(S(=O)(=O)C(C)C)c(O)c(=O)c1O` has an IC50 of over 500000 nM (Ribonuclease H1 (Homo sapiens, UniProt O60930); enzyme activity, inhibitor).
`COCCn1cc2c(n1)CN(C(=O)Nc1nc(-c3ccc(F)cc3F)ccc1N)C2` has an IC50 of over 30000 nM (HDAC10 (Homo sapiens, UniProt Q969S8); deacetylase activity, inhibitor, recombinant enzyme).
The IC50 of `O=C1C2=C(Nc3ccccc3SC2C2CC2)c2ccccc21` (racemic) is reported as over 20000 nM (Type II NADH dehydrogenase (Plasmodium falciparum, UniProt Q8I302); enzyme activity, inhibitor, fluorescence NAD+ quantitation; recombinant enzyme).
The IC50 of `CC(C)CCn1c(OC2CN(C(=O)C3CC3)C2)nc2c1c(=O)n(C)c(=O)n2C` is reported as 537 ± 62 nM (ALDH1A1).
`CC(C)Oc1cc(NC(=O)[C@@H](Cc2c[nH]c3ccccc23)NC(=O)c2ccc(N)c(OCc3ccccc3)c2)ccc1C(=O)NCC(=O)O` gave an IC50 of over 100000 nM (MCL1; fluorescence anisotropy competition; pH 7.50, together with: FITC-NOXA B peptide).
The IC50 of `COc1cc2nccc(Oc3ccc(NC(=S)NC4CC=C(F)CC4)c(Cl)c3)c2cc1C(N)=O` (stereo not drawn) is reported as 1100 nM (KDR (Homo sapiens, UniProt P35968)).
`N=C(N)NCCC[C@@H]1NC(=O)[C@H](CCCCNC(=O)[C@H]2O[C@@H](CNC(=O)COCCOCCn3cc(CNC(=O)CC[C@H](NC(=O)c4ccc(NN=Cc5ccccc5S(=O)(=O)O)nc4)C(=O)NCc4cn(CCOCCOCC(=O)NC[C@@H]5O[C@H](C(=O)NCCCC[C@@H]6NC(=O)[C@@H](Cc7ccccc7)NC(=O)[C@H](CC(=O)O)NC(=O)CNC(=O)[C@H](CCCNC(=N)N)NC6=O)[C@H](O)[C@H](O)[C@H]5O)nn4)nn3)[C@H](O)[C@@H](O)[C@H]2O)NC(=O)[C@@H](Cc2ccccc2)NC(=O)[C@H](CC(=O)O)NC(=O)CNC1=O` gave an IC50 of 20 nM (Integrin alpha-V/beta-3 (Homo sapiens, UniProt P05106+P06756); ligand displacement, radioligand; pH 7.4).
For `Cn1c(=O)c2c(nc(OC3CCN(C(=O)C4CC4)CC3)n2Cc2cccc(F)c2)n(C)c1=O`, the IC50 was 285 ± 101 nM (ALDH1A1).
`C[C@H](NC(=O)[C@H](CC(=O)NCC(C)(C)C)NC(=O)C(=O)c1c[nH]c2ccccc12)C(=O)NCc1ccc(F)cc1F` has an IC50 of over 100000 nM (PSMB6/PSMB7 (Homo sapiens, UniProt P28072+Q99436); inhibitor).
The IC50 of `CC(C)CCN(Cc1ccccc1[N+](=O)[O-])c1nc(C#N)nc(N2CCOCC2)n1` is reported as 96 nM (Procathepsin L (CTSL, Homo sapiens, UniProt P07711); enzyme activity, inhibitor, fluorescence).
`CC(C)(C)NCCCNC(=O)c1ccnc(C(F)(F)F)c1` gave an IC50 of over 100000 nM (UHRF1 (Homo sapiens, UniProt Q96T88); methyl-lysine reader binding, inhibitor, AlphaScreen).
`COc1cc2nccc(Oc3ccc(NC(=S)NCCCO)c(Cl)c3)c2cc1C(N)=O` has an IC50 of 87.3 nM (PDGFRB).
`CCOC(=O)N1CCC(Nc2nc3c(c(=O)n(C)c(=O)n3C)n2Cc2cccc(C)c2)CC1` gave an IC50 of 562 ± 98 nM (ALDH1A1).
For `C=C(CC(O)C(=O)O)C(=O)O` (racemic), the IC50 was 1500 nM (TET1 (Homo sapiens, UniProt Q8NFU7); enzyme activity, 5hmC ELISA; recombinant protein).
For `Cc1ccc2nc(C)n(/N=C/c3ccc(C(=O)O)cc3)c(=O)c2c1`, the IC50 was 342000 nM (Serine protease 1 (PRSS1, Bos taurus, UniProt P00760); enzyme activity, inhibitor).
For `CC(=S)NCCCC[C@H](NC(=O)[C@H](CCCNC(=N)N)NC(=O)[C@H](C)N)C(=O)N[C@@H](CO)C(=O)N[C@H](C(=O)O)[C@@H](C)O`, the IC50 was over 100000 nM (SIRT6 (Homo sapiens, UniProt Q8N6T7)).
`O=C(O)/C=C/C(=O)NNC(=O)c1cc2c(cn1)[nH]c1ccccc12` has an IC50 of 54000 nM (Egl nine homolog 1 (EGLN1, Homo sapiens, UniProt Q9GZT9); inhibitor, AlphaScreen; bimodal curve, rough estimate, together with: 2 µM 2-oxoglutarate).
`COc1cc(COc2ccc3c(C)cc(=O)oc3c2)cc(OC)c1OC` has an IC50 of 77 ± 8 nM (Nucleoside transporter 1 (Plasmodium vivax, UniProt A5K8B0); yeast growth; purine auxotrophic yeast expressing target; 15 to 17 h, together with: adenosine 1 mM).
`CC1CC(=O)N(C2CCOCC2)N=C1c1ccc(NC(=O)N2Cc3ccncc3C2)cc1` (stereo not drawn) gave an IC50 of 2.7 nM (NAMPT (Homo sapiens, UniProt P43490); enzyme activity, inhibitor).
`COc1cc2nccc(Oc3ccc(NC(=S)Nc4ccccc4)c(Cl)c3)c2cc1C(N)=O` has an IC50 of 194 nM (PDGFRB).
The IC50 of `CSCCNC(=O)CCC(C)C1CCC2C3C(O)CC4CC(O)CCC4(C)C3CC(O)C12C` (stereo not drawn) is reported as 19900 nM (Bile acid receptor (NR1H4, Homo sapiens, UniProt Q96RI1); protein-protein interaction, antagonist; CHO-K1; together with: GW4064 0.37 µM).
With `O=C1C2CC3CC1CC(C(=O)N1CCN(c4ccc([N+](=O)[O-])c5ncccc45)CC1)(C3)C2` the IC50 was 1260 nM (TLR8 (Homo sapiens, UniProt Q9NR97); reporter gene).
The IC50 of `COC(=O)C1=CNC=C(C(=O)OC)C1c1ccc(F)c(C(F)(F)F)c1` is reported as 23 nM (KCNN4 (Homo sapiens, UniProt O15554, T212F/V272F); ion current, inhibitor, patch clamp).
For `COc1cc2ncnc(Oc3ccc(Nc4nccc5[nH]cc(-c6ccccc6F)c(=O)c45)cc3F)c2cc1OC`, the IC50 was 28.8 nM (MET (Homo sapiens, UniProt P08581); kinase activity, inhibitor, HTRF).
`COc1ccc(-c2cc(C(F)(F)F)nc(S(=O)(=O)CCC(=O)Nc3ccc(C)cc3)n2)cc1` gave an IC50 of over 50000 nM (WRN (Homo sapiens, UniProt Q14191); ATPase activity, inhibitor, ADP-Glo; together with: ATP 1 mM).

For quick reference, copied from above:
For `CC[C@H](C)[C@@H]1NC(=O)[C@H](CCCNC(=N)N)NC(=O)[C@H](CCCNC(=N)N)NC(=O)[C@H](CC(C)C)NC(=O)[C@@H](NC(=O)[C@H](C)NC(=O)[C@H](C)NC(C)=O)CSCc2ccc(cn2)-c2ccc(nc2)CSC[C@@H](C(=O)N[C@H](C(=O)N[C@@H](CC(N)=O)C(=O)N[C@@H](CC(C)C)C(=O)N[C@@H](CCCNC(=N)N)C(=O)N[C@@H](CCC(N)=O)C(=O)N[C@@H](CCCCN)C(=O)N[C@@H](CC(C)C)C(=O)N[C@@H](CC(C)C)C(=O)N[C@@H](CC(N)=O)C(N)=O)C(C)C)NC(=O)[C@H](CC(=O)O)NC(=O)CNC1=O`, the IC50 was 41 nM (MCL1; ligand displacement, FP).
`CC(C)C[C@H]1CN[C@H](C(N)=O)CSSC[C@@H](N)C(=O)N[C@@H](CCC(N)=O)C(=O)N[C@@H](Cc2c[nH]c3ccccc23)C(=O)N[C@@H](C)C(=O)N[C@@H](C(C)C)C(=O)N[C@H](C)C(=O)N[C@@H](Cc2c[nH]cn2)C(=O)N1` gave an IC50 of over 10000 nM (NMBR (Homo sapiens, UniProt P28336); inositol phosphate generation, antagonist; NCI-H1299; together with: neuromedin B).
For `COc1cc2nccc(Oc3ccc(NC(=S)NC4CC4)c(C(F)(F)F)c3)c2cc1C(N)=O`, the IC50 was 406 nM (PDGFRB).
With `O=C(O)c1ccccc1-c1c2ccc(=O)c(Br)c-2oc2c(Br)c(O)ccc12` the IC50 was 23800 nM (FTO (Homo sapiens, UniProt Q9C0B1); enzyme activity, inhibitor, mass spectrometry).
